Measurements from different studies.
Parts stem from different laboratories: compare values within a part only. “And” joins repeats or separate records; there may be more than shown. pIC50: −log10 of the molar value.

Study 1
Cell line: HCC1569
Method: in-cell western
Item: CDK1 phospho-Thr14
SMILES | IC80
Cc1ccc(O)c(C)c1-c1cnc2[nH]c(-c3cnc(N4CCC(CN5CCN(c6ccc(C(=O)NC7CCC(=O)NC7=O)c(F)c6)CC5)CC4)nc3)cc2c1C#N (racemic) | 0.395 µM
Cc1ccc(O)c(C)c1-c1cnc2[nH]c(-c3cnc(N4CCC(CN5CCN(c6ccc7c8c(cccc68)C(=O)N7C6CCC(=O)NC6=O)CC5)CC4)nc3)cc2c1C#N (racemic) | > 1 µM
Cc1ccc(O)c(C)c1-c1cnc2[nH]c(-c3cnc(N4CCC(CN5CCN(c6ccc(N7CCC(=O)NC7=O)cc6F)CC5)CC4)nc3)cc2c1C#N | 0.64 µM

Study 2
Compound: Cn1cc(-c2cccc(CN3CCC4(CC3)COc3c4ccc4c3CN([C@H]3CCC(=O)NC3=O)C4=O)c2)cn1
Action: degrader
Ikzf2/Crbn I391V: Ikzf2/Crbn (Mus musculus, UniProt P81183+Q8C7D2, I391V)
Chain of UniProt Q8C7D2 (whole entry, unmodified, looked up): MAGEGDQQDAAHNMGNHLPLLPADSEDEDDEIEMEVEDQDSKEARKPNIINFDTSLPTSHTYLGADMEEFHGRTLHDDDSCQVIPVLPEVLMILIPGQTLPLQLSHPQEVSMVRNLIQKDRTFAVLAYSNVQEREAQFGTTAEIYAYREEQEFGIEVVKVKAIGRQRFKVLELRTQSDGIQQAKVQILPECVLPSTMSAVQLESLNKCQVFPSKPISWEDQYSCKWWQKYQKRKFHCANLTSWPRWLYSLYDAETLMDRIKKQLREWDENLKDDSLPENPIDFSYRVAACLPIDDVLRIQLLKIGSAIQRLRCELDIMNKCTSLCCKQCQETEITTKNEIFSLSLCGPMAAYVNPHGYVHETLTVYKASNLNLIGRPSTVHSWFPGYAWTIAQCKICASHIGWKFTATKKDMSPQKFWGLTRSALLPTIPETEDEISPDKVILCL
Chain of UniProt P81183 (whole entry, unmodified, looked up): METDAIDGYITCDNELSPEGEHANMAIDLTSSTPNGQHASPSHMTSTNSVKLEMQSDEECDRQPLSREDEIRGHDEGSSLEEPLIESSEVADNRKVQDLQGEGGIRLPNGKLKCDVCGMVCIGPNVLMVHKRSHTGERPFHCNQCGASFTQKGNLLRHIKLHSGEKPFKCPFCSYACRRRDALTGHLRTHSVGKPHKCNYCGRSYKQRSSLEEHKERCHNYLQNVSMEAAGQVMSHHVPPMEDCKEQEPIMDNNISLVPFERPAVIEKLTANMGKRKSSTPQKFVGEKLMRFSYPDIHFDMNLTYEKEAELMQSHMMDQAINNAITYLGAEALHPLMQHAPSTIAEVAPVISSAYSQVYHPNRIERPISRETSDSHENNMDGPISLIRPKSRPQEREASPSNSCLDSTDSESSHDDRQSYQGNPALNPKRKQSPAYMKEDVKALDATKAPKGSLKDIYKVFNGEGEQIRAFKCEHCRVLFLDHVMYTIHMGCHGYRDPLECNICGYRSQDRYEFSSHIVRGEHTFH
CRBN/Zinc finger protein Helios: CRBN/Zinc finger protein Helios (Homo sapiens, UniProt Q96SW2+Q9UKS7)
Chain of UniProt Q96SW2 (whole entry, looked up): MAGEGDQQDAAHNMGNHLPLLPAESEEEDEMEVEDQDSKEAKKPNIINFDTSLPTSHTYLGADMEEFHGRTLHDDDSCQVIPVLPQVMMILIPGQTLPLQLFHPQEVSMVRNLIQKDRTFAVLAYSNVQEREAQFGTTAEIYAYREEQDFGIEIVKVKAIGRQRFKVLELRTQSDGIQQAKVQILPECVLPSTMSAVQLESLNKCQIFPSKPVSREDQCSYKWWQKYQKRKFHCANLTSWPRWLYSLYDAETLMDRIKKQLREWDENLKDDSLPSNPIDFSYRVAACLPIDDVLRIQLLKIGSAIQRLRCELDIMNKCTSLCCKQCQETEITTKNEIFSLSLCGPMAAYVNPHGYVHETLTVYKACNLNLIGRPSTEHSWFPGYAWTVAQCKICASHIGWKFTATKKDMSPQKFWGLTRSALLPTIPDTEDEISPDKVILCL
Chain of UniProt Q9UKS7 (whole entry, looked up): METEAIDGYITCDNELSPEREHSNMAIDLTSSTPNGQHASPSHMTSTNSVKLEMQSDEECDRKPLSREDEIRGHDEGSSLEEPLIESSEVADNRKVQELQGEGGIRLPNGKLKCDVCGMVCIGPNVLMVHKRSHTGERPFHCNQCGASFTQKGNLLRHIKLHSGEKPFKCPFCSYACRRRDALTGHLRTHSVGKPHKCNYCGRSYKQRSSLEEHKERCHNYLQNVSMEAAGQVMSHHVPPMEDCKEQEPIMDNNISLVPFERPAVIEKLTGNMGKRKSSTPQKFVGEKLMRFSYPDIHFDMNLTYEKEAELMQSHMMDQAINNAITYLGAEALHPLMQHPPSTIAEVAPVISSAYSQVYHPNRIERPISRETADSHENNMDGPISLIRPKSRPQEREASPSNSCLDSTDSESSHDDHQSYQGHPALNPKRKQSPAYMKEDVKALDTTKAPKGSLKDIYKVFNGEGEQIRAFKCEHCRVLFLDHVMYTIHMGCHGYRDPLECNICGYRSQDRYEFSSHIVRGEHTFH
target | assay | system | setting | protein remaining
Ikzf2/Crbn I391V | – | Crbn I391V mouse, thymus | 100 mg/kg, 6 h | 22% and 26% and 27% and 34%
Ikzf2/Crbn I391V | – | Crbn I391V mouse, spleen | 30 mg/kg, 12 h | 22% and 15% and 8% and 19%
CRBN/Zinc finger protein Helios | HiBiT | HEK293 | 333.3 nM, 3 h | 13.1% and 15.9%
CRBN/Zinc finger protein Helios | HiBiT | HEK293 | 111.1 nM, 6 h | 16.2% and 14.3%
CRBN/Zinc finger protein Helios | HiBiT | HEK293 | 333.3 nM | 7.14% and 11.1%
Ikzf2/Crbn I391V | – | Crbn I391V mouse, spleen | 10 mg/kg, 6 h | 22% and 30% and 38%
CRBN/Zinc finger protein Helios | HiBiT | HEK293 | 37.04 nM, 0.5 h | 74.7% and 71%
CRBN/Zinc finger protein Helios | HiBiT | HEK293 | 333.3 nM, 6 h | 10.5% and 16.1%
CRBN/Zinc finger protein Helios | HiBiT | HEK293 | 1000 nM, 0.5 h | 63.9% and 67.9%
CRBN/Zinc finger protein Helios | HiBiT | HEK293 | 37.04 nM, 1 h | 49.9% and 47.8%
CRBN/Zinc finger protein Helios | HiBiT | HEK293 | 1000 nM, 1 h | 40.1% and 39%
Ikzf2/Crbn I391V | – | Crbn I391V mouse, spleen | 30 mg/kg, 24 h | 40% and 45% and 23% and 26%
Ikzf2/Crbn I391V | – | Crbn I391V mouse, thymus | 30 mg/kg, 12 h | 8%
CRBN/Zinc finger protein Helios | HiBiT | HEK293 | 0.4572 nM, 0.5 h | 92.5% and 86.3%

Study 3
SMILES: N=C(N)NCCCCCCN1CCC23c4c5ccc(O)c4OC2c2nc4ccccc4cc2CC3(O)C1C5 (stereo not shown)
Method: modified Racine scale
Host: C57BL/6J mice, male
Route: intracerebroventricular
Dose: 100 nmol
Reading: direction not given
setting | seizure score
30 min | 0
65 min | 0
15 min | 0
75 min | 0

Study 4
SMILES: C#CCN1C(=O)C(O)(C(=O)O)Oc2cc(F)ccc21 (stereo not shown)
organism | assay | system | setting | inhibition
Arabidopsis thaliana | root length | Col-0 | 12.5 µg/mL, 7 days, seed germination, dark | 50.8%
Oryza sativa | fresh weight | – | soil surface spray, 150 g ai/ha, 21 days, pre-emergence crop safety | 1.9% and 1% and 2.5%
Arabidopsis thaliana | hypocotyl length | Col-0 | 3.125 µg/mL, 7 days, seed germination, dark | 10.1%

Study 5
Target: UDP-N-acetylglucosamine--peptide N-acetylglucosaminyltransferase 110 kDa subunit (OGT, Homo sapiens, UniProt O15294)
Chain of UniProt O15294 (whole entry, looked up): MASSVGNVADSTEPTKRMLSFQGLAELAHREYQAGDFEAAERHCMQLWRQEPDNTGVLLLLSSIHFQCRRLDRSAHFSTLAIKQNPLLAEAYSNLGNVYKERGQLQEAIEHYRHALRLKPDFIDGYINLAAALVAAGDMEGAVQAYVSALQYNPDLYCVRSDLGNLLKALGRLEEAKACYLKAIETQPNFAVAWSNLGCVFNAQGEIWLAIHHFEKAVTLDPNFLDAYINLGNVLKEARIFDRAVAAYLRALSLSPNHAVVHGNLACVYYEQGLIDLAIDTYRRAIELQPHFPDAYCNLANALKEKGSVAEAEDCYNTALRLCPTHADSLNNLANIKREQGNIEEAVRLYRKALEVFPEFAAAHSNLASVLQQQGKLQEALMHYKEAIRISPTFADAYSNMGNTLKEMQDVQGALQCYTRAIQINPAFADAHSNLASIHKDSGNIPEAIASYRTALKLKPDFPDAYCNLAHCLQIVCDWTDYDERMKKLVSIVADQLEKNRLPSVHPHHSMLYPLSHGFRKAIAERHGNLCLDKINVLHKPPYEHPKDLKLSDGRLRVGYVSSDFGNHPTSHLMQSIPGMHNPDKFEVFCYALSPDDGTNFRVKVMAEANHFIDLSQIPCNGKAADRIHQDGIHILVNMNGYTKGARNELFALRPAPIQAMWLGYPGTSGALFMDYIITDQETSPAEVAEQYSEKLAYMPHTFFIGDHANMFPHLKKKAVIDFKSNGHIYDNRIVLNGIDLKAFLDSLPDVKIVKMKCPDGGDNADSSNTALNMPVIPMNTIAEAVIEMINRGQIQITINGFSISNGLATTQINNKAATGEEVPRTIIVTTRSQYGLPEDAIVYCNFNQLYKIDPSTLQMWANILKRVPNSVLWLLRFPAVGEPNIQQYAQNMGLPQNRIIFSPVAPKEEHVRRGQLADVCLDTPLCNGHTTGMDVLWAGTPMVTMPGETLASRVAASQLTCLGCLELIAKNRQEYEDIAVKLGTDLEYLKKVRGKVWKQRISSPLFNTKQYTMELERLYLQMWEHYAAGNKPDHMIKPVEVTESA
Effect on: enzyme activity
Action: inhibitor
Method: fluorescence
Compound | pIC50
CC[C@H](C)[C@H](NC(=O)[C@H](CO)NC(=O)[C@H](Cc1ccc(O)cc1)NC(=O)[C@H](CCCCN)NC(=O)[C@@H]1CCCN1C(=O)[C@H](CCSC)NC(=O)[C@H](Cc1ccccc1)NC(=O)[C@H](CCSC)NC(=O)[C@@H](NC(=O)[C@@H]1CCCN1C(=O)[C@H](Cc1ccccc1)NC(=O)[C@H](CC(=O)O)NC(=O)CN)C(C)C)C(=O)O | < 3.70
CC[C@H](C)[C@H](NC(=O)[C@H](CO)NC(=O)[C@H](Cc1ccc(O)cc1)NC(=O)[C@H](CCCCN)NC(=O)[C@@H]1CCCN1C(=O)[C@H](CCSC)NC(=O)[C@@H](N)Cc1ccccc1)C(=O)O | < 3.70
CSCC[C@H](NC(=O)[C@H](Cc1ccccc1)NC(=O)[C@H](CCSC)NC(=O)[C@@H](NC(=O)[C@@H]1CCCN1C(=O)[C@H](Cc1ccccc1)NC(=O)[C@H](CC(=O)O)NC(=O)CN)C(C)C)C(=O)O | < 3.70
CC[C@H](C)[C@H](NC(=O)[C@H](CCC(N)=O)NC(=O)[C@H](Cc1ccc(O)cc1)NC(=O)[C@H](CCC(N)=O)NC(=O)[C@@H]1CCCN1C(=O)[C@H](CCSC)NC(=O)[C@@H](N)Cc1ccc(O)cc1)C(=O)O | < 3.70

A few entries again (study 2):
target | assay | system | setting | protein remaining
CRBN/Zinc finger protein Helios | HiBiT | HEK293 | 333.3 nM, 3 h | 13.1% and 15.9%
CRBN/Zinc finger protein Helios | HiBiT | HEK293 | 333.3 nM | 7.14% and 11.1%
Ikzf2/Crbn I391V | – | Crbn I391V mouse, spleen | 30 mg/kg, 24 h | 40% and 45% and 23% and 26%
CRBN/Zinc finger protein Helios | HiBiT | HEK293 | 37.04 nM, 1 h | 49.9% and 47.8%
